Assay results collected from several papers.
Parts stem from different laboratories: compare values within a part only. Positions count from the first letter of the parent shown.

Set 1
Target: RING finger protein unkempt homolog, zinc fingers 1-6, SBP tag (UNK, Homo sapiens, UniProt Q9C0B0, residues 30-357)
UniProt Q9C0B0, sequence (30-357, looked up): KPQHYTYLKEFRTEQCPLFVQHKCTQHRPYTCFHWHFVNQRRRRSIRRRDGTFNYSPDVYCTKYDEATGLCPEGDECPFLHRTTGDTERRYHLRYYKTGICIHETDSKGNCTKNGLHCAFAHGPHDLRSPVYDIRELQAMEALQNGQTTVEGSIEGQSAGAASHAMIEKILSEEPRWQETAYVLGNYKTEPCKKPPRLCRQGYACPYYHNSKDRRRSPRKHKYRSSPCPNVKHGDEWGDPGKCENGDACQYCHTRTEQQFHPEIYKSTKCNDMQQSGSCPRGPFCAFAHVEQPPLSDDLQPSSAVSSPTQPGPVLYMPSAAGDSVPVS
Method: RNA Bind-n-Seq
Molecule type: RNA
Matrix: in vitro
Concentration: 100 nM
Notes: RNA with constant flanks, vertebrate orthologous sites, ends assumed
Baseline: input RNA pool
Direction: higher = stronger binding
Sequence	bound/input enrichment
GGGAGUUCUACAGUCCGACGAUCCUUACCUGGUUAAUGUGUUUCUAUUUAUUGAGUCUAGUUUGUGCUAAACAUUGUGUUAAAUAGUGGAUUGACUCCACGUUGUUGUGUUGUUUUCAUUGUUGAAAAUAAAUAUAACUUUGUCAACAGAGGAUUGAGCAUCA	0.367 ratio
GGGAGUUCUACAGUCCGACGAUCUGGUGCCCCACCCUUGUGAGAGAGAGUGGGGAAAGCAGGUGACCCUCAGCUGUUCCGAUUUAGGUUUUUUUUGUUUCUGUUUUUUAAGAGUUACUGUAUUUAUUAUGACGAUGGUGACUCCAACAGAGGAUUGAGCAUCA	1.74 ratio
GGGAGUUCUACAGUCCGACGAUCGUACUACAAAAAAAAAUCAUCCUAGUUUUAAAGCUAACUACGGUGAUAACUAGUCUGUGCUAGUAGAAUCAUUUAUUAUUACUUUUAAAAUUAUCUGCUCUGUCUGAUACCUGCAACCACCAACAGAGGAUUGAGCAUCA	1.8 ratio
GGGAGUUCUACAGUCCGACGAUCUGGUAUUUUCAAACAAUAGGAAGCGUCCUGGUUUGUUCGUUUUUUUUUUUUUUCUUACAGUUUCGUAUCUGGUUUCUACAUGGAAGACUAAACUCAUGCUUAGAGUUAAAUGUGGUCUUUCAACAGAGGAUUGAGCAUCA	0.53 ratio
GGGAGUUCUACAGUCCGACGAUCUCACAAACUCAAAGGGGAACUAGUAAAGAGAUUCUAAUAGUUAGGAAAAGAGUAGGAAUUUAGGAAAGAGUAGGACAACUUUACAAAUGAACAAUUAAAAAUAAAAGAGAGAGAAUCCGGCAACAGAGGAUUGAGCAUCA	0.563 ratio
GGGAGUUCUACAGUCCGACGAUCCGUGCUUAUGCUCUUCUAUGAGAGAGAUGAAUUGGGGAGAACUGUCUCCAUUUUAUGGAUUAGUUUCUUUCUAAAUUAUGACCAAAAAUAUUUUGCUAUUUCUUUCUUUGUAUAUGGACACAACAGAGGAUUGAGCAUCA	0.362 ratio
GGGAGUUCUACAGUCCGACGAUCCUUAAUUAGAGGGCAAUAUAUGUUUCAUAAAGAAGAGUCUUUAUAAUUUUGUUUGUCAGAUAGUAUUUUGGAAUUUGUAUAAUAAGGAUGUUUAGAAGCCAUAUAAGUGGCUUUUUUUAACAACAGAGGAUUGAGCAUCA	0.38 ratio
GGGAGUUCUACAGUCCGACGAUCGAACUAAAGGAGUUAGCAUCUUUAUUUUUGUAUCAAAGAUAAAGGUUAUUUUGAAAUUAUUAGGAUUUUUUUAUACAACUCUGGAAUCUGUUGCUUUUGUAAACAAAUUCUUUGAUCUUACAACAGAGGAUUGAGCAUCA	1.27 ratio

Set 2
Target: ABI1, truncated, D143A, DHFR fusion (Arabidopsis thaliana)
Method: DHFR PCA, deep sequencing
Matrix: yeast
Notes: methotrexate growth selection, single substitutions
Added: (+)-ABA 2500 µM
Baseline: wild-type fitted maximum
Direction: higher = stronger binding
Starting sequence: PYL1, truncated, DHFR fusion (Arabidopsis thaliana); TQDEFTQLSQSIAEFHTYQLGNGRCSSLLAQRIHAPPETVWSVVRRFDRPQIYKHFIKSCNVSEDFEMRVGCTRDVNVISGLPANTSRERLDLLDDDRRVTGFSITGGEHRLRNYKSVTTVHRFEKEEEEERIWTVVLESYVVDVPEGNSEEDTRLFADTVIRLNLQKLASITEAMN; partner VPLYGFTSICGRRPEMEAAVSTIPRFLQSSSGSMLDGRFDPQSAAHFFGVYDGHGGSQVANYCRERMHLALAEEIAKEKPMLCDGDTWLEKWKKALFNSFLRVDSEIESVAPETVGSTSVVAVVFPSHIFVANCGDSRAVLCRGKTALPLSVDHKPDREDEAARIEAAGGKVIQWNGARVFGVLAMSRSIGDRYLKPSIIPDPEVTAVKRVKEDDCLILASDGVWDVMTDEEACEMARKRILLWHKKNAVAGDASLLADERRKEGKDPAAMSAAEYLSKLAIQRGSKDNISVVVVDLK
Change	relative binding score
G21Y	98.7%
S59K	93%
R163W	58.7%
L20G	102%
E147H	98.1%
N149P	38.7%

Set 3
Target: CCNA2, cyclin fold, Cln2 fusion (human)
Method: yeast growth competition, sequencing
Matrix: yeast
Notes: strong parent motif
Baseline: not given
Direction: higher = stronger binding
Starting sequence: CDKN1B docking peptide (human); PSACRNLFGPVDH
Change	normalised enrichment score
PSACRNLEGPVDH [F8E]	-0.365
PSACRNLFYPVDH [G9Y]	1.91
PSACRNLFGPVDY [H13Y]	3.97
PSACRNLFGPVDP [H13P]	4.15
PSACRNLFGSVDH [P10S]	3.83
ISACRNLFGPVDH [P1I]	3.88
PSACRNLFGPVLH [D12L]	3.33
ESACRNLFGPVDH [P1E]	2.17
PSACRNKFGPVDH [L7K]	0.759

Further values, each from its own experiment
Molecule	target	assay	test system	setting	how to read	endpoint	result
PhoQ, residues 284 288 289 292 302 303 SACGEM	PhoP, residues 12 14 15 18 19 STWGI (Escherichia coli, UniProt P23836)	Sort-seq, refers to: YFP reporter	E. coli	PhoQ-PhoP variant library, added: 10 µM Mg2+	baseline: high Mg2+ state, higher = stronger signaling	fold induction	7.78

A few entries again (set 2):
Change	relative binding score
N149P	38.7%
R163W	58.7%
